Measured values from different studies.
Every numbered part comes from another study and shows a few of its results, in no order.

Set 1 — method: RNA Bind-n-Seq; molecule type: RNA; matrix: in vitro; concentration: 365 nM; baseline: no-protein control; reading: higher = stronger binding
Target: RNA binding protein fox-1 homolog 2, RRM domain, GST-SBP tag (RBFOX2, Homo sapiens, UniProt O43251-10, residues 100-194)
Setting: natural RNA segment, single round, ends assumed
Residues (chain): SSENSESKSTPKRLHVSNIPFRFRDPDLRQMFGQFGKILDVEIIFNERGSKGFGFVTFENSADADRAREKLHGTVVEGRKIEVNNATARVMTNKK
Sequence | RBNS enrichment (R)
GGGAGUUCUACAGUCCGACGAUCUAACAGUCUUUCUUAAAAUCAGUAUACUAUUUUAGUGGACUUCUGUCUCUAUGAGACAGCUAGUCCAUUACUGUUACUAUUGUAUUACUGUCAUGUUCUUUACAUGUCACUGGAAUUCUCGGGUGCCAA | 0.241
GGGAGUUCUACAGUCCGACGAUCACACGCAUAUCAAUUAAUUUAAAAAGCGAAUAAAUGUAAAUUAUAAAAAGAGUCCUACCCCCCUCUUAAGCUGCAUAUCCCGUUCAGUUUAUUGCCCCCAUGGAGUUGAGUGGAAUUCUCGGGUGCCAA | 0.968
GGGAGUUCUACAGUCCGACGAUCUUGUAUAUUUCUAUCUGGUAGUAAUGUGUAUUUACAACAUCUGUCACUGCAGUGUUACCGGAGCUUCCUUCAUUGUGCGCACACGACAAAUCUGAGUUCUUUGGGAAAAAUGGAAUUCUCGGGUGCCAA | 0.926
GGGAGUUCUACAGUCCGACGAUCGUGCGGUGGGACUCCACAUGCGCCGGAAGGAGCUUCAGGUGAGCACUGCUCAUGUGUGGAUGCCCCUGCAACAGGCUUCCCUGUCUGUAGAGCCAGGGGUGCAAGUGCCAUGGAAUUCUCGGGUGCCAA | 0.24
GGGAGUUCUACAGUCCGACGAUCGUUUGCCUGUCCCCGGAGGCUGGAAGUAGAAGCCAGGCUACAUCUAAGUUGCCCUGACUGGCCUUCAGCUGGCCUUACCCACUUCUUCAGUUACCCUGAACAUGGGGAGUUGGAAUUCUCGGGUGCCAA | 0.216
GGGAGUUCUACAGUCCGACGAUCAGCAGACAUAGAAGAGCCAAGAGUCCAGGAGGCCCUGGUCCUGGCCUCCUUCCCCGUACUUUGUCCCGUGGCAUUUCAAUUCCUGGCCCUGUUCUCCUCCCCAAGUCGGCUGGAAUUCUCGGGUGCCAA | 0.579
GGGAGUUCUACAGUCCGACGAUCUUGCUUUCUUCCUUACUCUGCCCCACACACGUACACUUUCUGUAAAACUUGAAAAUAGAAAGCAAAAACCCUCAACUGUUGUAAAUCAUGCAAUUAAGGUUGAUUACUUAUGGAAUUCUCGGGUGCCAA | 0.672
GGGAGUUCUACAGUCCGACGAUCCAGGCUUCUGGUUCUUGGUUCUAUUAUGCCACUUCUCCGGUUCUUUCUAUCCCAAGGAGAGUGUGACUGGGUCACACUCACAGUUGCUGUUACUGAAAUGAACUCUGCAGUGGAAUUCUCGGGUGCCAA | 0.261

Set 2 — method: RNAcompete; molecule type: RNA; matrix: in vitro; concentration: 20 nM; setting: 7-mer, probes averaged, single round; baseline: mean of 7-mers; reading: higher = stronger binding
Target: PABPC1L2, full length, GST fusion (mouse, UniProt A0ABA7IW68)
Construct (chain): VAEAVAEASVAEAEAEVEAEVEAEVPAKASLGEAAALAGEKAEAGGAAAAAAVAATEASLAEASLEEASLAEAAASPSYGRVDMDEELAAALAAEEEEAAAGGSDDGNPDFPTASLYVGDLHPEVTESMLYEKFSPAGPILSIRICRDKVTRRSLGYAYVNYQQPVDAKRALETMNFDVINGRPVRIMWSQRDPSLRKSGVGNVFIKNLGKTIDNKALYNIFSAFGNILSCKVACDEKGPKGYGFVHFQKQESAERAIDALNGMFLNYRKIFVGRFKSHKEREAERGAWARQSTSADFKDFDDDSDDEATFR
Sequence | 7-mer Z-score
UGCCCAC | -0.262
AAUAUGG | 0.753
AAGUGAC | 0.303
AACCUUC | -0.249
GUAUCCC | -0.358
AAAUACC | 1.32
AAGCACU | 0.2
UCCCUAA | -0.186
UAGUGCG | -0.171
ACAGCCG | -0.164
GAUCCAA | 0.158
UCGCUCG | -0.38
UCUGGCC | -0.282
GAAUCGC | -0.206
AAAGUGA | 1.48
UCCAUAA | 0.144
CCAAGGA | 0.095
CCCGACU | -0.306
GGUGGAU | 0.187
UACUUAC | -0.188
CGUUCGC | -0.519
CGUUAUA | -0.278
UCUGAUU | -0.306
UUCUCUU | -0.481
GGAGACA | 0.267

Set 3 — method: protein-binding microarray; molecule type: double-stranded DNA, one strand shown; matrix: in vitro; concentration: 2200 nM top; setting: 60-bp whole probe; together with: salmon DNA 0.4 mg/ml; baseline: random background probes; reading: higher = stronger binding; constant ends, left off below: GCCTAGCAC … GTCTTGATTCGCTTGACGCTGCTG
Target: Interferon regulatory factor 7, full length, phosphomimetic (IRF7, Homo sapiens, UniProt Q92985, residues 1-503, S471D/S472D/S475D/S476D/S477D/S483D/S484D/S487D)
Residues (chain): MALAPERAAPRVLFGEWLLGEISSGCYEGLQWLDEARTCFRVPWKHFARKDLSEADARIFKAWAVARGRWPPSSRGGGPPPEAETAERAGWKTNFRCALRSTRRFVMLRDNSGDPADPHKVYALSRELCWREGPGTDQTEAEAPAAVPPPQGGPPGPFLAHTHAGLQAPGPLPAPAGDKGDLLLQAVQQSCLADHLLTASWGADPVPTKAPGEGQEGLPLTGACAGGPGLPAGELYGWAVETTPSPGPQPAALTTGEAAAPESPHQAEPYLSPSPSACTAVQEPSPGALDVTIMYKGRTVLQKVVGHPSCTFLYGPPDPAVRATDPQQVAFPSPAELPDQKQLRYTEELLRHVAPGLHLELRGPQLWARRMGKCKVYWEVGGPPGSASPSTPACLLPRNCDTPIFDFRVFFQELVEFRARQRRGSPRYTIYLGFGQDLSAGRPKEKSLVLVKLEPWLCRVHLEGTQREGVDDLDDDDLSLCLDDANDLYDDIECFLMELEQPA
Sequence | fitted relative affinity [z-score]
GACGATATCGGGAATCGAGACGTGCTA | -0.104
TAAGGTTTCCAATCAGCCCCGTGCTAG | 1.31
GACGATACCAGTCTCGAGACGTGCTAG | 0.43
TTGGGTCTCCTACTGCTTTAGTGCTAG | 0.666
CATGAATCAGGCATAGCATGGTGCTAG | -0.0532
TCATCTCTGCTCCTTCTGACTGTGCTA | 1.87
TCAGATTTCTCAAACAGACTGTGCTAG | 0.306
GTAGATTTCGGGACTGGATTAGTGCTA | 1.18
TTAGGTATCGGTTTCGGTTCGTGCTAG | 12.6
TTAGATATCGGGTTGCGATTAGTGCTA | 0.65
TTAGTTTCCCTTTTCCTTTAGTGCTAG | 9.31
GACGAACTGAGTTTCGAGTCGTGCTAG | 4.19
TCAATCGTCCCTTTGAGACTGTGCTAG | 0.77
CTGCCTAACATGCTTCGAGATGTGCTA | 0.502
TCATTTTTTGTAATCGAACTGTGCTAG | 1.26
TGTCCTTTCACTTTAACTTAGTGCTAG | 5.37
AGCCATCTGCAGCAGGCCCCGTGCTAG | -0.476
TCACATTGCCTATTTTTCACTGTGCTA | 2.14
TGACAGCAGGAACATGGGCTGTGCTAG | -0.805

Set 4 — method: protein binding microarray; molecule type: double-stranded DNA, one strand shown; matrix: in vitro; concentration: not given; baseline: not given; reading: higher = stronger binding
Target: Histone acetyltransferase KAT6A, both winged helices, GST fusion (KAT6A, Homo sapiens, UniProt Q92794, residues 1-181)
Setting: 8-mer, flanks averaged, mean of 2 arrays, mostly near background
Target sequence (chain): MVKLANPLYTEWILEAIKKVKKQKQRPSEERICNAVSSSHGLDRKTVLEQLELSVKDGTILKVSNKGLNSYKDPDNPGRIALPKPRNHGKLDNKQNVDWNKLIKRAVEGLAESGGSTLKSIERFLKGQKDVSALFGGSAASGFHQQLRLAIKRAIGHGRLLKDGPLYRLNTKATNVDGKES
Sequence | E-score
ATGGCACA | -0.0852
AATAATGA | -0.0423
CATTACCA | -0.136
GCTGTTTA | 0.0272
ATGTTCAA | 0.102
GCCCAAGA | -0.152
CGTAACCA | 0.0327
CAGTTATG | -0.149
CCGGGGGC | 0.153
CTGCCACC | -0.151
GATACGGC | 0.318
CACGGCTG | 0.207
CAACCCAC | -0.207
ATCTCCAA | -0.19
CTGTGTCA | 0.0339
CGTCTTTC | 0.0105
CGATCGCC | 0.311
ACTGAACA | -0.0526
GGGGCATA | -0.163
ACGGTCCC | 0.191
